Measurements pooled from the literature.
A part holds a random share of what one study measured. Positions count from the first letter of the parent shown.

Set 1
Target: CCND2, cyclin fold, Cln2 fusion (human)
Method: yeast growth competition, sequencing
Matrix: yeast
Setting: weak parent motif
Relative to: not given
Reading: higher = stronger binding
Starting sequence: SLBP docking peptide (human); ARYKRKLLINDFG; partner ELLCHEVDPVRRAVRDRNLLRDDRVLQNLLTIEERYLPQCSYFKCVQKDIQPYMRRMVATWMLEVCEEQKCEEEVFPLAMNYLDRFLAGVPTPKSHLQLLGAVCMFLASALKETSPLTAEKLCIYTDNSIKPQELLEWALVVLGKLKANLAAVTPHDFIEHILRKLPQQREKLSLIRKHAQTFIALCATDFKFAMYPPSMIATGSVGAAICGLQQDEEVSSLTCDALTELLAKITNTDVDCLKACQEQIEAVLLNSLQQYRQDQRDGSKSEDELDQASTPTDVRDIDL
Change	normalised enrichment score
AHYKRKLLINDFG [R2H]	-0.0954
ARYKQKLLINDFG [R5Q]	-0.109
ARYKRKLLINDFE [G13E]	0.422
RRYKRKLLINDFG [A1R]	-0.405
ARYKRKLLIRDFG [N10R]	-0.0904
AFYKRKLLINDFG [R2F]	-0.297
ARYKRELLINDFG [K6E]	0.263
ARYKAKALINDFG [R5A L7A]	0.23
ARYKRKLLINDFH [G13H]	0.333
ARYKRVLLINDFG [K6V]	0.504
ARYKRKLLIGDFG [N10G]	0.865
ARYKRKLWINDFG [L8W]	0.588
ARYKRKLLENDFG [I9E]	0.00953
ACYKRKLLINDFG [R2C]	0.146
ARVKRKLLINDFG [Y3V]	0.161
DRYKRKLLINDFG [A1D]	0.341
ARYIRKLLINDFG [K4I]	-0.0221
ARYKFKLLINDFG [R5F]	0.221
VRYKRKLLINDFG [A1V]	0.426
ARYKRKLLANDFG [I9A]	-0.237
ARYKRKLLINDFK [G13K]	0.534
ARYKGKLLINDFG [R5G]	0.119
ARYKRKLLNNDFG [I9N]	0.311
ARYKRKLEINDFG [L8E]	0.427
ARYKRKLLINDFC [G13C]	0.284

Set 2
Target: ABI1, truncated, D143A, DHFR fusion (Arabidopsis thaliana)
Method: DHFR PCA, deep sequencing
Matrix: yeast
Setting: methotrexate growth selection, single substitutions
With: (+)-ABA 58 µM
Relative to: wild-type fitted maximum
Reading: higher = stronger binding
Starting sequence: PYL1, truncated, DHFR fusion (Arabidopsis thaliana); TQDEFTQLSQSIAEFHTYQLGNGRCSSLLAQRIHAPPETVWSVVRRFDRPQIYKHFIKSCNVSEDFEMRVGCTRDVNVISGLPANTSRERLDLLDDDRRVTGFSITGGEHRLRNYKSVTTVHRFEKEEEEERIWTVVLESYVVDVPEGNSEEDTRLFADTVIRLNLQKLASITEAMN
Change	relative binding score [%]
C60I	66.6
Q167E	84
V143A	55.3
E128S	97.3
S26P	-4.92
Q10E	102
I57R	1.93
F66M	74.9
G148T	67.2
S27W	9.24
E14R	75
F47W	53.1
L20Q	91.9
T73S	79.9
P83S	51.3
L94M	87.6
T86Q	65.8
G23H	83.5
Q7S	86.1
T173I	77.2
V145M	56.1
P37F	7.72
T154E	-3

Set 3
Target: Ras GTPase-activating protein-binding protein 1, full length (G3BP1, Homo sapiens, UniProt Q13283)
UniProt Q13283, sequence (whole entry, looked up): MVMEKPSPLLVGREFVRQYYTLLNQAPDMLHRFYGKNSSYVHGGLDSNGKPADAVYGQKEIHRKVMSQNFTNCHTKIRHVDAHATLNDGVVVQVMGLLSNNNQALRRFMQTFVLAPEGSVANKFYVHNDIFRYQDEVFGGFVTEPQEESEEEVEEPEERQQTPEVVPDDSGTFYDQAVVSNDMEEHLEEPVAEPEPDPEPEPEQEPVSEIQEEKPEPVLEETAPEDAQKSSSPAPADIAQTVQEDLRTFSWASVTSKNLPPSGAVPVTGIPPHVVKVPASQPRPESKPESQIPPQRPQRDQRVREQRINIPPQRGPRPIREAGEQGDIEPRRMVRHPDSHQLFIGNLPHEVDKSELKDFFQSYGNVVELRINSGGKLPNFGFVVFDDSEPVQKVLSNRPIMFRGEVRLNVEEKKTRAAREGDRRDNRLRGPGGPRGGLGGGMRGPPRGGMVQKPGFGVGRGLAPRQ
Method: RNA Bind-n-Seq
Molecule type: RNA
Matrix: in vitro
Tested at: 200 nM
Setting: whole 134-nt RNA, ends assumed
With: 150 mM KCl
Relative to: input library
Reading: higher = stronger binding
All sequences stand within: GGGAGUUCUACAGUCCGACGAUC … UGGAAUUCUCGGGUGUCAAGG
Oligonucleotide	log2 enrichment
AAGUCCUGUGCUACACAUCGUAUGUACCGAAUCGGAAAAAGGAAAAAGGGAAAAAGGAAAGUAUUAUGUUACGCCGUUCGGAUCUGCACU	-1.09
UCCUGUGCUACACAUCGUAUGUACCGAAUCGGGGCCCCCGGGCCCCCGGGGCCCCCGGGAAAGUAUUAUGUUACGCCGUUCGGAUCUGCA	-1.18
ACCAUGCAGGUGGGCAUCUUUGGGAAGUGGGGCAAGGGGGGGAUAGGGAGGGGGGUAACACUUUGGGAACAGGUGGUCCCAGGUCGUAAA	1.23
UGGGGACAAGCUGACAGCAGCCAUGGCGAGCGGCAGUGGAGACAGCGUCACCCGUCGGAGCGUGGCAUCACAGUUUUUCACUCAAGAGGA	-1.54
GUCCUGUGCUACACAUCGUAUGUACCGAAUCGGAAAAAAGGAAAAAAGGAAAAAAGGGAAAGUAUUAUGUUACGCCGUUCGGAUCUGCAC	-0.974
GCAGGAAGUAAAAACAAAUGGAAAUGCUUCGGAUAGAGGCAGGGGUGGGGGUUGCUAAGGAAAGGGUGGGAUGGGAGUGGGUAAAGAGUU	1.52
CUGUGCUACACAUCGUAUGUACCGAAUCGGGGUUUUUUUGGGGAAAAAAAGGGGUUUGGGGAAAGUAUUAUGUUACGCCGUUCGGAUCUG	-0.233
ACCAUGCAGGUGGGCAUCUUUGGGAAGUGUGGCAAGGGGGGGAUAGGGAGGGGGGUAACACUUUGGGAACAGGUGGUCCCAGGUCGUUUC	1.53
CACAGACAACACGCACCCACACAGACACAGAAAAAAGGGGUUGGGAUGGGGACAGGGUGCACAGCAGGGCGGGGUAGGACCCCAGCCCCU	1.88
CAAGUCCUGUGCUACACAUCGUAUGUACCGAAUCGGGGUGGGGAGGGGAAAGGGGAAAGUAUUAUGUUACGCCGUUCGGAUCUGCACUUC	1.39
UCCUCAAGUCCUGUGCUACACAUCGUAUGUACCGAAUCGGGGCGGCGGCGGAAAGUAUUAUGUUACGCCGUUCGGAUCUGCACUUCCAGC	-0.295
ACCAUGCAGGUGGGCAUCUUUGGGAAGUGGGGCAAGGGGGGGAUAGGGAGGGCGGUAACACUUUGGGAACAGGUGGUCCCAGGUCGUUUC	1.28
UGGGAGGUGGAUUUUGUUUAUUUUUUUAGCUCAUUUCCAGGGGUGGGAAUUUUUUUUUAAUAUGUGUCAUGAAUAAACUUGUUUUUGAAA	0.156
UGGGAGGUGGAUUUUGUUUAUUUUUUUAGCUCAUUUCCAGGGGUGGGAAUUUUUAUUUAAUAUGUGUCAUGAAUAAAGUUGUUUUUGAAA	0.315

Set 4
Target: RNA binding protein fox-1 homolog 2, RRM domain, GST-SBP tag (RBFOX2, Homo sapiens, UniProt O43251-10, residues 100-194)
Method: RNA Bind-n-Seq
Molecule type: RNA
Matrix: in vitro
Tested at: 365 nM
Setting: natural RNA segment, single round, ends assumed
Relative to: no-protein control
Reading: higher = stronger binding
All sequences stand within: GGGAGUUCUACAGUCCGACGAUC … UGGAAUUCUCGGGUGCCAA
Construct (chain): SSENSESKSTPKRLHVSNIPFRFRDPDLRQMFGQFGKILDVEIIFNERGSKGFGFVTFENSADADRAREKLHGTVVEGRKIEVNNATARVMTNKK
Oligonucleotide	RBNS enrichment (R)
GCUCGGAAGUAGCUCUAGUCCUGCGAGCAGGCACUUGGAACAGCAGUCUGUAAGCAGGAGUCAUUGCCAUGUUGCCCUCCCUGCUGGUGUUACUGUGUUCCCUUAGAGCA	0.754
UAAUCUUGGGAUCGUAUUUUUAUAUCAUAUUCACAUACUUGUUUUUUUAAUUGGUGUUAGAUGACAUGAUUAAUAAAAAAGGCAAGAUAUUUUCAGAAUUUGAAUUUCAG	0.585
UACCUAGCCUCCCCUGGCUGCUCUCCUGUCAGUGAGAUGCAGGAGCCGCCCUCUGCUCUCAGUGGUCUCUGCUACUGAUGAAUCCAGUGGGUUUCCUUUCAUAUUCUCCU	0.211
UUGUAAAGAUAUUGUAUCUCCUUUAAUAUACUCCUUAAAAAUGUAUGUUGGUUUAGCGUUGUUUUGUGGAUAAGAAAAAUGCUUGACCCUGAAAUAUUUUCUACUUUAAA	0.871
ACCAGGGUCACUUCCACUGUCAGGGGCCUGAGGGGGCAGCUGUGGCUGCAGGGCUGCUCUGGACUGAGGGGUCCCAGGCCCCGAGGGGUGCACGCCUGGCUCCCCUUGGC	0.611
CUUACGUUUCCGUUUCUUCAUCGGCUGAUUGGAUGCUUACAGGGUUCUCUUGUGACAUGUAUAAGUGCUGCUUACAUCACUCAACAGCAACAGAACGUGGUAGUGGAGUA	0.28
GGUCCCUGUGCCCUGGCCUGGGGGAGGGGAACGCGGAACAUGGGGUCGGGAACACAGCCGCUCCCCUCUGCUCUGCACCCCACUCGUGGGGGAACACAGCCGCUCCCCUC	0.558
GGAGCCCGGGUGGUGCCCUGAGCCUCGAGCUGCUCUCUGUCACUGUCUUGAAUCAGACUCAGAAAUGGCUUCUUCCCAGCCCUGCCUACAAGUUUUUCUCUGGGGUCCUC	0.435
AACAUCAUUGAAGCGUGACUGCCUGUCUGCAGGGAGAAGGAUUCCAUUUUUCUUCUCAGCUGGUCCCCAGGCCCACGGGCACAGGGAGAGGGACAACUGCAGCAGUGGGG	0.424
CUGCCUGUCCUCUGGUUAGGCCCCUCCCUCUCCACUAGUGGUGAAUGCAUGUGUCUGUCUGAUCAGCAUCACUGCACACGGAGGUCUAGUGAGCCUCUUGCUAAGUGUCA	1.53
GGACACCAGAGGCUGCCUUAGCAGAUGGGUCACACUGCUUCCAGCCUUAGCCAGCCAGUGACAAGUGAAUCCAGACGUCACCCAUGUGUUUUGGAACAUUUAUGUAAGAU	0.34
CUUUGGUUUGCUUUCUUCAGGCUCUAGGGCUGUGCUAUCCAAUACAGUAACCACAUGCGGCUGUUUAAAGUUAAGCCAAUUAAAAUCACAUAAGAUUAAAAAUUCCUUCC	0.46

Other studies, line by line
Substance	target	test	test system	setting	how to read	endpoint	result
PhoQ, residues 284 288 289 292 302 303 NLMGRA	PhoP, residues 12 14 15 18 19 IFFTR (Escherichia coli, UniProt P23836)	Sort-seq, item: YFP reporter	E. coli	PhoQ-PhoP variant library, with: 10 µM Mg2+	relative to: high Mg2+ state, higher = stronger signaling	fold induction	2.71
